Published values from different studies.
Each numbered part is a random draw from the data of one study; scales do not carry over between parts.

Set 1 — technique: protein-binding microarray; molecule type: double-stranded DNA, one strand shown; medium: in vitro; concentration: 940 nM top; setting: 60-bp whole probe; together with: salmon DNA 0.4 mg/ml; relative to: random background probes; direction: higher = stronger binding; shared flanks, not repeated: GCCTAGCAC … GTCTTGATTCGCTTGACGCTGCTG
Target: Interferon regulatory factor 5, full length, phosphomimetic (IRF5, Homo sapiens, UniProt Q13568-2, residues 1-514, S451D/S453D/S456D/S462D)
Strand | fitted relative affinity [z-score]
TTAGCTATCGGACTGGGTTAGTGCTAG | 0.265
GACGGTATCGGACTGGGAACGTGCTAG | 2.39
TTAGGTTTGCTTTCCCTTTAGTGCTAG | 0.73
TTAGGACTGGGGACTGGGTTAGTGCTA | -0.573
TCAAGTTTGACATCTTCAACTGTGCTA | -0.182
TTTGTAATCGAAATCTTCATGTGCTAG | -0.174
GACGGACTGGGTCTCGGGCCGTGCTAG | -0.467

Set 2 — technique: protein binding microarray; molecule type: double-stranded DNA, one strand shown; medium: in vitro; concentration: not given; relative to: not given; direction: higher = stronger binding
Target: Histone acetyltransferase KAT6A, winged helix 1, GST fusion (KAT6A, Homo sapiens, UniProt Q92794, residues 1-85)
Setting: 8-mer, flanks averaged, mean of 2 arrays, mostly near background
Construct (chain): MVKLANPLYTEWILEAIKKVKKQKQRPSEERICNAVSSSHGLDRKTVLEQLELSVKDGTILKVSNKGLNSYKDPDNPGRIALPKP
Strand | E-score
AGAAGTTG | -0.344
CCCGAATC | -0.0341
AATTGGGC | -0.227
CAGCGAAA | -0.0108
CAGACGTC | -0.056
AGAAACTA | -0.102
ATCACTAA | -0.0486

Set 3 — technique: protein-binding microarray; molecule type: double-stranded DNA, one strand shown; medium: in vitro; concentration: not given; direction: higher = stronger binding
Target: Hepatocyte nuclear factor 3-beta, forkhead domain (FOXA2, Homo sapiens, UniProt Q9Y261, residues 142-269)
Setting: k-mer, scored over probes, only values ≥0.25
Target sequence (chain): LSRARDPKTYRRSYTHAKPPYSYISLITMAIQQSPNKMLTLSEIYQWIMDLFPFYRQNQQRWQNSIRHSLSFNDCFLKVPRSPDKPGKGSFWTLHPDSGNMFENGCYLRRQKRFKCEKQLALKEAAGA
Strand | E-score
CTGTGTAC | 0.306
TGTGGAAA | 0.303
GACAATAC | 0.317
ATTTAAAC | 0.267
AATATAAG | 0.348
ATATGGCA | 0.308
ACACGTAT | 0.258
AACAACTA | 0.277

Single results of other studies
Molecule | target | assay | test system | conditions | scale | measurement | value
PhoQ, residues 284 288 289 292 302 303 SVHLDV | PhoP, residues 12 14 15 18 19 NQAHL (Escherichia coli, UniProt P23836) | Sort-seq, refers to: YFP reporter | E. coli | PhoQ-PhoP variant library, together with: 10 µM Mg2+ | relative to: high Mg2+ state, higher = stronger signaling | fold induction | 1.33

Excerpt of the above (set 2):
Strand | E-score
ATCACTAA | -0.0486
